Assay results collected from several papers.
Protocols differ between the studies behind these lines. Numbers after ± are the reported error. Converted amounts (≈) assume the structure as drawn.
CYP2C19: Cytochrome P450 2C19 (CYP2C19, Homo sapiens, UniProt P33261)
UniProt P33261, sequence (whole entry, looked up): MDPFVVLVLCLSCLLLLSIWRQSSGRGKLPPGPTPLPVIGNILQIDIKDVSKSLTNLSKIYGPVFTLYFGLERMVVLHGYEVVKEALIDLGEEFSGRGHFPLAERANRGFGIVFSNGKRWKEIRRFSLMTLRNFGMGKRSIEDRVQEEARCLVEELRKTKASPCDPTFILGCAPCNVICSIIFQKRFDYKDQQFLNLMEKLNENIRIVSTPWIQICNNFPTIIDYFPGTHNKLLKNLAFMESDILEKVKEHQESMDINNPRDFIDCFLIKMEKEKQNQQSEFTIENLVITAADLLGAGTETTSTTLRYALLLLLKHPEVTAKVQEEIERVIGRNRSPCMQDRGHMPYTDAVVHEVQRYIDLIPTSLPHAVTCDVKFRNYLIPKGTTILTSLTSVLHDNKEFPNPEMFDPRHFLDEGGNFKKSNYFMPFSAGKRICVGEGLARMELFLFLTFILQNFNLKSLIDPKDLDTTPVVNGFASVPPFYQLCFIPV
UniProt P10632, sequence (whole entry, looked up): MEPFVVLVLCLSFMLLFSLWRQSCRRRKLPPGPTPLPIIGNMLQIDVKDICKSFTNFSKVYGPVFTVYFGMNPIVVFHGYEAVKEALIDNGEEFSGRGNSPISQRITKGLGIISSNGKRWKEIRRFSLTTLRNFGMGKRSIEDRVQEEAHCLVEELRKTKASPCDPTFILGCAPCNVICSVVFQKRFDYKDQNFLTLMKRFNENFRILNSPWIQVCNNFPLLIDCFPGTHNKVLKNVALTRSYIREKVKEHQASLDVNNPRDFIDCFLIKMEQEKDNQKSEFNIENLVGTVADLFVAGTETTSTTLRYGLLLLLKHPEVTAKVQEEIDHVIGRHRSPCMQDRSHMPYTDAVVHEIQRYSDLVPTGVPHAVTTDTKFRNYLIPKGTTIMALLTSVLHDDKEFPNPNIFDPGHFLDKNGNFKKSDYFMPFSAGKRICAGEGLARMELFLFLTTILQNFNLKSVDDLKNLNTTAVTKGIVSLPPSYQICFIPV
UniProt Q06520, sequence (whole entry, looked up): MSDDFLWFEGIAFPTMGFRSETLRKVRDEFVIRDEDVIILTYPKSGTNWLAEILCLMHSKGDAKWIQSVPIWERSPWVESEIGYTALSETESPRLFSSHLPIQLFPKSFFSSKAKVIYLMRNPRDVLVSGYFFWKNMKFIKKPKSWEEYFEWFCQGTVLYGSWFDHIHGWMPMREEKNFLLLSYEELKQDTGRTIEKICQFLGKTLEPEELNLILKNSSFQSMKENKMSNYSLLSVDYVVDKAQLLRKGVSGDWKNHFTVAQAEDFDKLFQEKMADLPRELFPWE
UniProt P16662, sequence (whole entry, looked up): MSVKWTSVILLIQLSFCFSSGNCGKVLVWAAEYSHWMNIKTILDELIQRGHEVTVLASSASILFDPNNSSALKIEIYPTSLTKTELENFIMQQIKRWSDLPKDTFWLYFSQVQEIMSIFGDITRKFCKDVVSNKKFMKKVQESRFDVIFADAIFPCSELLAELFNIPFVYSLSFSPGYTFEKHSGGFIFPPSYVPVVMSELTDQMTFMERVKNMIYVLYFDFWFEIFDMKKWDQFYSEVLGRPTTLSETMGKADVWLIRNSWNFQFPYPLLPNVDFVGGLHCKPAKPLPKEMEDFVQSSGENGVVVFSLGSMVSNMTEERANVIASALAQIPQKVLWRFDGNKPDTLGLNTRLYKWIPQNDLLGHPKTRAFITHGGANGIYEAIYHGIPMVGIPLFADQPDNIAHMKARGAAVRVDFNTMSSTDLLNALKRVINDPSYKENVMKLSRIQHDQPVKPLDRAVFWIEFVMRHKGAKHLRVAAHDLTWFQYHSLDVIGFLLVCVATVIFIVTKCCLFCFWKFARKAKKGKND

| Compound | tested on | test | test system | setting | how to read | measurement | result |
| --- | --- | --- | --- | --- | --- | --- | --- |
| C[C@H](O)CC(=O)OCCc1ccc(O)cc1 | human cells | – | – | – | – | CC50 | > 100 µM |
| CC1(C)C=Cc2c(ccc3c(=O)cc(-c4ccccc4)oc23)O1 | differentiated SH-SY5Y | MTT | – | 10 µM | relative to: control | viability | 98.4 ± 3.4% |
| Nc1nc2c([C@@H]3O[C@@H]4COP(=O)(O)O[C@H]5[C@@H](O)[C@H](c6scc7c(=O)[nH]c(N)nc67)O[C@@H]5COP(=O)(O)O[C@H]4[C@H]3O)scc2c(=O)[nH]1 | – | – | water | – | – | molar absorption coefficient | 7470 M⁻¹ cm⁻¹ |
| O=C(O)CCC(NP(=O)(O)OCCC[C@@H](NC(=O)CCC(NC(=O)CCCCCNC(=O)c1ccc([18F])cc1)C(=O)O)C(=O)O)C(=O)O (stereo partly shown) | CWR22Rv1 tumour model | – | host not given, kidney | intravenous, 1 h, tumour-bearing | – | tracer uptake | 24.4 %ID/g |
| COc1cc(C(=O)NCCOCCOCCOCCNC(=O)c2ccc([18F])nc2)ccc1NC(=O)C1NC(CC(C)(C)C)C(C#N)(c2ccc(Cl)cc2F)C1c1cccc(Cl)c1F (stereo not shown) | HepG2 tumour model | – | host not given, liver | 30 min, tumour-bearing | – | tracer uptake | 10.2 %ID/g |
| C=C(C)[C@@H]1CCC(CO)=C[C@H]1c1c(O)cc(CCCCC)cc1O | CYP2C19 | – | – | concentration not given, single dose, together with: fluconazole steady state | – | decrease in Cmax | 41% |
| CN(C)CC1CCCCC1(O)c1cccc(O)c1 (stereo not shown) | P-glycoprotein | – | Caco-2 TC7 | 10 µM, 3 h, pH 6.8 apical, 7.4 basolateral, together with: cyclosporin A 10 µM | – | Papp A to B | 6.8 ± 0.3 ×10⁻⁶ cm/s |
| CCC(=O)N(C)c1ccc(Cl)c(Cl)c1 | Salmonella typhimurium | Ames test | TA100 | 0.10 mg/plate, without S9 | – | revertant colonies | 72 ± 13.9 revertants/plate |
| CN(C)C(CNC(=O)Nc1cc(C(F)(F)F)ccc1N1CCOCC1)c1ccncc1 (stereo not shown) | – | – | mouse, serum | intraperitoneal, 240 mg/kg single dose | – | serum total protein | 4.3 g/dL |
| CO/C(=C\C(=O)c1ccc2occc2c1OC)c1ccccc1 | differentiated SH-SY5Y | MTT | – | 100 µM | relative to: control | viability | 98.5 ± 4.1% |
| N[C@]1(c2ccccc2Cl)CCC[C@H](O)C1=O | – | – | Wistar rats | intravenous, 20 mg/kg, 60 min | – | plasma concentration | 2830 ± 313 ng/mL |
| CC(C)(O)c1ccccc1CC[C@H](c1cccc(/C=C/c2ccc3ccc(Cl)cc3n2)c1)S(=O)(=O)CC1(CC(=O)O)CC1 | Cytochrome P450 2C8 (CYP2C8, Homo sapiens, UniProt P10632) | – | human liver microsomes | 2 µM, pH 7.4, together with: paclitaxel | – | inhibition | 94.6% |
| COc1c2c(cc3oc(-c4ccccc4)cc(=O)c13)OC(C)(C)C=C2 | differentiated SH-SY5Y | MTT | – | 0.1 µM | relative to: control | viability | 97.1 ± 1.7% |
| CC(C)[C@H](NC(=O)CNC(=O)[C@H](CCC(N)=O)NC(=O)[C@H](C)N)C(=O)O | – | – | human | intravenous infusion, 45 mg/kg/h, 2 h, relatedness Definitely | relative to: subjects | drug-related adverse events | 0% |
| COc1ccc2nc(C)cc(OCC(=O)Nc3cc(C)cc(C)c3)c2c1 | – | CLND | phosphate-buffered saline | 1 (unit not given), pH 7.4 | – | kinetic solubility | 32 µM (≈ 11.2 µg/mL) |
| CN[C@](C)(C[18F])C(=O)O | A549 tumour model | – | host not given, kidney | 30 min, tumour-bearing | – | tracer uptake | 11 %ID/g |
| CCCCCc1cc(O)c2c(c1)OC(C)(C)C1CCC(CO)=CC21 (stereo not shown) | UGT2B7 (Homo sapiens, UniProt P16662) | enzyme activity, inhibitor | pooled human kidney microsomes | up to 100 µM, together with: zidovudine | – | inhibition | ≤ 50% |
| O=C(O)CCC(NP(=O)(O)OCCC[C@@H](NC(=O)CCC(NC(=O)c1ccc([18F])cc1)C(=O)O)C(=O)O)C(=O)O (stereo partly shown) | CWR22Rv1 tumour model | – | host not given, heart | intravenous, 2 h, tumour-bearing | – | tracer uptake | 0.5 %ID/g |
| COc1ccc(CNc2nc(N3CCC[C@H]3CO)ncc2C(=O)NNC(=O)c2cnc(N3CCC[C@H]3CO)nc2NCc2ccc(OC)c(Cl)c2)cc1Cl | Salmonella typhimurium | – | TA98 | 250 µg/plate, 48 h, together with: rat liver S9 | – | revertant count | 38 ± 2 |
| O=C(NC12CC3CC(CC(C3)C1)C2)c1cc2cc(Cl)ccc2[nH]1 | – | – | human liver microsomes | – | – | intrinsic clearance | 0.9 mL/min/g |
| Nc1nc2c([C@@H]3O[C@@H]4COP(=O)(O)O[C@H]5[C@@H](O)[C@H](n6cnc7c(=O)[nH]c(N)nc76)O[C@@H]5COP(=O)(O)O[C@H]4[C@H]3O)scc2c(=O)[nH]1 | – | – | water | – | – | molar absorption coefficient | 3540 M⁻¹ cm⁻¹ |
| COc1ccc(CNc2nc(N3CCC[C@H]3CO)ncc2C(=O)NN)cc1Cl | Salmonella typhimurium | – | TA98 | 125 µg/plate, 48 h, together with: rat liver S9 | – | revertant count | 34 ± 3 |
| CSCC[C@@H]1NC(=O)[C@@H]2CSSC[C@H](NC(=O)[C@H](CO)NC(=O)[C@H](C)N)C(=O)N[C@@H](CCCNC(=N)N)C(=O)N[C@@H]([C@@H](C)O)C(=O)N3CCC[C@H]3C(=O)N[C@@H](CCCCN)C(=O)N[C@@H](CC(=O)O)C(=O)N[C@H]3CSSC[C@H](NC(=O)[C@H](CCCCN)NC(=O)[C@H](CCCNC(=N)N)NC(=O)[C@H](CC(N)=O)NC1=O)C(=O)N[C@@H](CCCCN)C(=O)N[C@H]1CSSC[C@H](NC(=O)[C@@H]4CCCN4C(=O)[C@H](CC(=O)O)NC(=O)[C@H](C)NC3=O)C(=O)N[C@@H](C)C(=O)N[C@@H](CCCCN)C(=O)N[C@@H](CCC(=O)O)C(=O)N[C@@H]([C@@H](C)O)C(=O)NCC(=O)N[C@@H](CSSC[C@@H](C(N)=O)NC(=O)[C@H](CCCNC(=N)N)NC(=O)[C@H](CC(N)=O)NC1=O)C(=O)N1CCC[C@H]1C(=O)N[C@@H](Cc1ccc(O)cc1)C(=O)NCC(=O)N[C@@H](CCCCN)C(=O)N2 | – | – | DA rat pristane-induced arthritis, serum | subcutaneous, 0.1 mg/kg once weekly, 21 days | – | Magnesium | 2.06 mg/dL |
| O=C(O)CCC(NP(=O)(O)OCCC[C@@H](NC(=O)CCC(NC(=O)CCCCCNC(=O)CCCCCNC(=O)c1ccc([18F])cc1)C(=O)O)C(=O)O)C(=O)O (stereo partly shown) | CWR22Rv1 tumour model | – | host not given, heart | intravenous, 2 h, tumour-bearing | – | tracer uptake | 0.06 %ID/g |
| C[C@@](O)(C(F)F)[C@H](NC(=O)c1ccc(C#CC#CC2CC2)cc1)C(=O)NO | – | – | CD-1 mouse | oral, 40 mg/kg, fasted | – | terminal half-life | 2 ± 0.7 h |
| CC[C@H](C)C(=O)N1CCC(NC(=O)Nc2ccc(OC(F)(F)F)c(F)c2)CC1 | – | – | human, plasma | oral, 8 mg, single dose, fed | – | Tmax | 8.25 h |
| C[C@]12CC[C@H](O)CC1CCC1C2[C@H](O)C(=O)[C@]2(C)[C@@H](c3ccc(=O)oc3)CC[C@]12O (stereo partly shown) | SULT2A1 (Homo sapiens, UniProt Q06520) | substrate | human kidney cytosol | pH 7.4 | – | sulfation rate | 1.88 pmol/min/mg protein |
| C=C(C)[C@@H]1CCC(C(=O)O)=C[C@H]1c1c(O)cc(CCCCC)cc1O | CYP2C19 | – | human | 750 mg single dose, alone, fluconazole arm baseline | – | half-life | 24.7 h |

For quick reference, copied from above:
| Compound | tested on | test | test system | setting | how to read | measurement | result |
| --- | --- | --- | --- | --- | --- | --- | --- |
| CN[C@](C)(C[18F])C(=O)O | A549 tumour model | – | host not given, kidney | 30 min, tumour-bearing | – | tracer uptake | 11 %ID/g |
| CCCCCc1cc(O)c2c(c1)OC(C)(C)C1CCC(CO)=CC21 (stereo not shown) | UGT2B7 (Homo sapiens, UniProt P16662) | enzyme activity, inhibitor | pooled human kidney microsomes | up to 100 µM, together with: zidovudine | – | inhibition | ≤ 50% |
| O=C(O)CCC(NP(=O)(O)OCCC[C@@H](NC(=O)CCC(NC(=O)c1ccc([18F])cc1)C(=O)O)C(=O)O)C(=O)O (stereo partly shown) | CWR22Rv1 tumour model | – | host not given, heart | intravenous, 2 h, tumour-bearing | – | tracer uptake | 0.5 %ID/g |
| COc1ccc(CNc2nc(N3CCC[C@H]3CO)ncc2C(=O)NNC(=O)c2cnc(N3CCC[C@H]3CO)nc2NCc2ccc(OC)c(Cl)c2)cc1Cl | Salmonella typhimurium | – | TA98 | 250 µg/plate, 48 h, together with: rat liver S9 | – | revertant count | 38 ± 2 |
